Measurements of several laboratories.
± gives the spread as reported.

Structure (SMILES)	target	assay	system	setting	scale	endpoint	result
CC(=O)N[C@H]1CNC(=O)c2cc(cn2C)NC(=O)c2cc(cn2C)NC(=O)c2cc(cn2C)NC(=O)c2nc(cn2C)NC(=O)C[C@@H](N)CNC(=O)c2cc(cn2C)NC(=O)c2cc(cn2C)NC(=O)c2cc(cn2C)NC(=O)c2nc(cn2C)NC(=O)C1	androgen response element DNA duplex	DNA binding	–	2 µM, pH 7.0	relative to: DNA alone	ΔTm	21.3 °C
CC(=O)NCCC[C@@H](NC(=O)[C@@H](N)Cc1ccc(O)cc1)C(=O)N[C@@H](Cc1ccccc1)C(=O)NCC(=O)N[C@@H](Cc1ccc(O)cc1)C(=O)N1CCC[C@H]1C(=O)N[C@@H](CO)C(N)=O	mu opioid receptor	radioligand binding	–	–	relative to: IC50 delta over IC50 mu	selectivity ratio	64
O=C1c2cc(F)ccc2NC12CCCC2	butyrylcholinesterase	–	–	10 µM	–	remaining activity	74 ± 2.95%
COCCCN1CCc2c(Cc3ccc(Cl)cc3)[nH]c3c(OC(F)F)ccc(c23)C1=O	PDE6C	enzyme activity, inhibitor	–	–	relative to: PDE6C IC50 over PDE5A1 IC50	selectivity ratio	6.5
COC[C@@H](NC(C)=O)C(=O)NCc1ccc(OCc2ccccc2F)cc1	rat voltage-gated sodium channels	whole-cell patch clamp	rat embryonic cortical neurons	10 µM	–	V1/2 of activation	-37 ± 4.4 mV
[CH3][Ti+2][O]C(=O)c1ccc([S][Au][PH](c2ccccc2)(c2ccccc2)c2ccccc2)cc1.c1cc[cH-]c1.c1cc[cH-]c1	thioredoxin reductase human	enzyme activity, inhibitor	CAKI-1	12 h	–	IC50	880 nM
Cc1cc(Nc2nc(C[C@@]3(C(=O)O)CCN(Cc4cccc(Cl)c4F)[C@H](C)C3)cc(C)c2F)[nH]n1	AURKA (Thr288 phosphorylation), mouse	AURKA phosphorylation, inhibitor, item: phospho-AURKA Thr288	mouse, NCI-H446 xenograft, tumour	oral, 2.5 mg/kg single dose, 1 h	–	inhibition	50.1%
CNc1ccccc1C(=O)O[C@H]1C[C@H](n2cnc3c(N)ncnc32)O[C@@H]1COP(=O)(O)OP(=O)(O)O	chicken myosin Va G440A FlAsH	–	–	25 °C	relative to: wild type, slower than wild type	slow phase release rate	10 fold
Cl.Cl.Cl.Cl.Cl.Cl.Cl.Cl.Cl.Cl.Cl.Cl.NC[C@@H]1O[C@H](O[C@H]2[C@@H](O)[C@H](O[C@@H]3[C@@H](O)[C@H](N)C[C@H](N)[C@H]3O[C@H]3O[C@H](CN)[C@@H](O)[C@H](O)[C@H]3N)O[C@@H]2Cn2cc(CCCc3cn(C[C@H]4O[C@@H](O[C@@H]5[C@@H](O)[C@H](N)C[C@H](N)[C@H]5O[C@H]5O[C@H](CN)[C@@H](O)[C@H](O)[C@H]5N)[C@H](O)[C@@H]4O[C@H]4O[C@@H](CN)[C@@H](O)[C@H](O)[C@H]4N)nn3)nn2)[C@H](N)[C@@H](O)[C@@H]1O	HIV-1 TAR RNA	UV thermal denaturation	–	1 molar equivalents to RNA, pH 6.8, TAR RNA 1 µM per strand	–	Tm	78.2 °C
NC(=O)[C@H](CO)NC(=O)[C@@H]1CCCN1C(=O)[C@H](Cc1ccc(O)cc1)NC(=O)CNC(=O)[C@H](Cc1ccccc1)NC(=O)[C@@H](CCCN=C=S)NC(=O)[C@@H](N)Cc1ccc(O)cc1	mu opioid receptor	radioligand binding	CHO cells	together with: 1 nM [3H]DAMGO	–	IC50	0.81 ± 0.29 nM
CCCCCCCC/C=C\CCCCCCCC(=O)Oc1cccc(SSC[C@H](N)C(=O)N[C@@H](Cc2ccc(O)cc2)C(=O)NCC(=O)N[C@@H](C)C(=O)N[C@@H](CCCCN)C(N)=O)c1	rabbit mitochondrial calpain	enzyme activity	renal proximal tubule cells	30 µM, 60 min	–	inhibition	~40%
O=c1c(-c2ccccc2)c(O)c2cc(-c3cccc(-c4ccccc4)c3)cnc2n1O	fowlpox virus resolvase	inhibitor	–	concentration not given	–	Holliday junction cleavage	inhibited
NC(=O)[C@H](CO)NC(=O)[C@@H]1CCCN1C(=O)[C@H](Cc1ccc(O)cc1)NC(=O)CNC(=O)[C@H](Cc1ccccc1)NC(=O)[C@@H](CCCCNC(=O)CBr)NC(=O)[C@@H](N)Cc1ccc(O)cc1	mu opioid receptor	radioligand binding	–	–	relative to: IC50 delta over IC50 mu	selectivity ratio	73
CC(C)C[C@H](NC(=O)[C@H](C)NC(=O)[C@H](CCCCN)NC(=O)[C@H](CCCNC(=N)N)NC(=O)[C@H](CCC(=O)O)NC(=O)[C@H](C)NC(=O)[C@H](CCC(=O)O)NC(=O)[C@H](CCCCN)NC(=O)[C@H](CCCCN)NC(=O)[C@H](CC(=O)O)NC(=O)[C@H](Cc1c[nH]cn1)NC(=O)[C@H](CC(=O)O)NC(=O)[C@H](Cc1c[nH]cn1)NC(=O)[C@H](CCCNC(=N)N)NC(=O)[C@H](CCC(=O)O)NC(=O)[C@H](CO)NC(=O)[C@H](CCCCN)NC(=O)[C@H](CC(C)C)NC(=O)[C@H](CCCNC(=N)N)NC(=O)[C@H](CCC(=O)O)NC(=O)[C@H](CC(C)C)NC(=O)[C@H](CCC(=O)O)NC(=O)[C@H](C)NC(=O)[C@H](CCC(=O)O)NC(=O)[C@H](CCC(=O)O)NC(=O)[C@H](Cc1c[nH]cn1)NC(=O)[C@H](CCCNC(=N)N)NC(=O)[C@H](CCC(=O)O)NC(=O)[C@H](CC(N)=O)NC(=O)[C@H](CCCCN)NC(=O)[C@H](CC(C)C)NC(=O)[C@H](CCCNC(=N)N)NC(=O)[C@H](CCC(N)=O)NC(=O)[C@H](CC(C)C)NC(=O)[C@H](CCC(=O)O)NC(=O)[C@H](C)NC(=O)[C@H](CC(=O)O)NC(=O)[C@H](C)NC(=O)[C@@H](NC(=O)[C@H](CC(C)C)NC(=O)[C@H](CCCCN)NC(=O)[C@H](CCC(=O)O)NC(=O)[C@@H](NC(=O)[C@H](CO)NC(=O)CN)C(C)C)[C@@H](C)O)C(=O)N[C@@H](CCC(=O)O)C(=O)N[C@@H](CC(=O)O)C(=O)N[C@@H](CCCCN)C(=O)N[C@@H](CC(C)C)C(=O)N[C@@H](C)C(=O)N[C@@H](CC(=O)O)C(=O)N[C@@H](Cc1ccc(O)cc1)C(=O)O	human plasminogen kringle 2	hydrogen-deuterium exchange NMR, item: L26, K27, E29 amides	–	concentration not given, pH 6.8, 25 °C	–	amide exchange persistence time	> 20 h
C[C@H](NC(=O)[C@@H]1CCCN1C(=O)[C@H](Cc1ccc(O)cc1)NC(=O)CNC(=O)[C@H](CO)NC(=O)[C@H](Cc1ccccc1)NC(=O)[C@@H](N)[C@@H](C)O)C(=O)N[C@@H](Cc1ccccc1)C(=O)O	µ opioid receptor	–	rat supraoptic nucleus neurons, Sprague Dawley rat	100 µM, held at -50 mV	–	outward current	89 ± 12.6 pA
Cl.Cl.Cl.Cl.Cl.Cl.Cl.Cl.Cl.Cl.Cl.Cl.NC[C@@H]1O[C@H](O[C@H]2[C@@H](O)[C@H](O[C@@H]3[C@@H](O)[C@H](N)C[C@H](N)[C@H]3O[C@H]3O[C@H](CN)[C@@H](O)[C@H](O)[C@H]3N)O[C@@H]2Cn2cc(COCCCCCCCCCCCCOCc3cn(C[C@H]4O[C@@H](O[C@@H]5[C@@H](O)[C@H](N)C[C@H](N)[C@H]5O[C@H]5O[C@H](CN)[C@@H](O)[C@H](O)[C@H]5N)[C@H](O)[C@@H]4O[C@H]4O[C@@H](CN)[C@@H](O)[C@H](O)[C@H]4N)nn3)nn2)[C@H](N)[C@@H](O)[C@@H]1O	HIV-1 TAR RNA	UV thermal denaturation	–	1 molar equivalents to RNA, pH 6.8, TAR RNA 1 µM per strand	relative to: RNA alone, higher is more stabilization	ΔTm	3.3 °C
O=C1c2ccccc2N(Cc2cccc(Br)c2)C12CCCC2	butyrylcholinesterase	–	–	10 µM	–	remaining activity	69.3 ± 3.68%
CC(=O)N[C@H]1CSC(=O)[C@H](CC(C)C)NC(=O)[C@H](Cc2ccc(O)cc2)NC(=O)[C@H](CC(N)=O)NC(=O)[C@H](CO)NC1=O	AgrC-III	GFP reporter	Staphylococcus epidermidis, agr group-III reporter	10 µM	–	AgrC-III inhibition	inactive

Excerpt of the above:
Structure (SMILES)	target	assay	system	setting	scale	endpoint	result
CC(=O)N[C@H]1CNC(=O)c2cc(cn2C)NC(=O)c2cc(cn2C)NC(=O)c2cc(cn2C)NC(=O)c2nc(cn2C)NC(=O)C[C@@H](N)CNC(=O)c2cc(cn2C)NC(=O)c2cc(cn2C)NC(=O)c2cc(cn2C)NC(=O)c2nc(cn2C)NC(=O)C1	androgen response element DNA duplex	DNA binding	–	2 µM, pH 7.0	relative to: DNA alone	ΔTm	21.3 °C
CC(=O)NCCC[C@@H](NC(=O)[C@@H](N)Cc1ccc(O)cc1)C(=O)N[C@@H](Cc1ccccc1)C(=O)NCC(=O)N[C@@H](Cc1ccc(O)cc1)C(=O)N1CCC[C@H]1C(=O)N[C@@H](CO)C(N)=O	mu opioid receptor	radioligand binding	–	–	relative to: IC50 delta over IC50 mu	selectivity ratio	64
